Experimental data of several laboratories.
Each numbered part is a random draw from the data of one study; scales do not carry over between parts. Several values in a cell are separate wells, animals, samples, runs or records.
Chain of UniProt P42336 (whole entry, unmodified, looked up): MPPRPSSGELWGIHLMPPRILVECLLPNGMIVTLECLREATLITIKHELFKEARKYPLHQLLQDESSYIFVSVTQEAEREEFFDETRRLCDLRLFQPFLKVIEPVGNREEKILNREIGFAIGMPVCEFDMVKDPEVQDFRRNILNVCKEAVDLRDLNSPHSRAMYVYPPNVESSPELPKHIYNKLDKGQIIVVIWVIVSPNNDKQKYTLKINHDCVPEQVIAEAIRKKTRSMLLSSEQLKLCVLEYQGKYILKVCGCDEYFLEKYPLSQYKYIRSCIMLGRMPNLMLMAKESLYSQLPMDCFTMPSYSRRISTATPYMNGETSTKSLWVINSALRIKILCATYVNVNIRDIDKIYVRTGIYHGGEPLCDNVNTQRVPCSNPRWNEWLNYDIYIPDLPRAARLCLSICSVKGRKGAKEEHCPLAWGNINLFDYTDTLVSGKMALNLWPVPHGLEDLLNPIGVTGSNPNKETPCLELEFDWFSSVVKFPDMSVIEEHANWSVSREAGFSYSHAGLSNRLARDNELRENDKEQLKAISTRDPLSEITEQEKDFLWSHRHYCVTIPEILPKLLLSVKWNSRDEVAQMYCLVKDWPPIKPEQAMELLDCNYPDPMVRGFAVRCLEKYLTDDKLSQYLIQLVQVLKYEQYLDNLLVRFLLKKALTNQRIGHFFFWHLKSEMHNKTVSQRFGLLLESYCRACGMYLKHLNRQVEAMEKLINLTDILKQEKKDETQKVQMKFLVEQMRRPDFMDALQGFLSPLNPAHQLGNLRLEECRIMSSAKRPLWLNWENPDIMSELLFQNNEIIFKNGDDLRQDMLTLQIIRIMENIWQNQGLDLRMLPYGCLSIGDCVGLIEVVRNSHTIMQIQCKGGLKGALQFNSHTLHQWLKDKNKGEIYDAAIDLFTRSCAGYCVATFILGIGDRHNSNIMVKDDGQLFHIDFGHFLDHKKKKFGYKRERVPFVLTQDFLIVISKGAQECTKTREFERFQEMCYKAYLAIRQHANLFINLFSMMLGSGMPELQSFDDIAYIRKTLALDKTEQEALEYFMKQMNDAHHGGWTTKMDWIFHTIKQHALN
Chain of UniProt Q9H1R3 (whole entry, looked up): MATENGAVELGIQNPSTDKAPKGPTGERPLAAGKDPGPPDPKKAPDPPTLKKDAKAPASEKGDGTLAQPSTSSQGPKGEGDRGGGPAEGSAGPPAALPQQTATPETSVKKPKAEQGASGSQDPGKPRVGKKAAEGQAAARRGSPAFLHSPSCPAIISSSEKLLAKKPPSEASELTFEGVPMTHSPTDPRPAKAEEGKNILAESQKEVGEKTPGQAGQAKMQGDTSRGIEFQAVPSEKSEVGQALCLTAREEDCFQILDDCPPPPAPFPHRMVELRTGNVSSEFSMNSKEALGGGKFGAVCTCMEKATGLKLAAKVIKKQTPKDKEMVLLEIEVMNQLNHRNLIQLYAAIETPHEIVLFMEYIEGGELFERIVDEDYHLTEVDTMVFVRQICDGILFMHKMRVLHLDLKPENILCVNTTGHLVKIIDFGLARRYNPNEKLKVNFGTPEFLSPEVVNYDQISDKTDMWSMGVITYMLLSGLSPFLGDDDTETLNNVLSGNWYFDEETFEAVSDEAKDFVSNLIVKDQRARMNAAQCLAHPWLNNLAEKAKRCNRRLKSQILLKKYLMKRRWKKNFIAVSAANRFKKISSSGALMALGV
Chain of UniProt Q02750 (whole entry, looked up): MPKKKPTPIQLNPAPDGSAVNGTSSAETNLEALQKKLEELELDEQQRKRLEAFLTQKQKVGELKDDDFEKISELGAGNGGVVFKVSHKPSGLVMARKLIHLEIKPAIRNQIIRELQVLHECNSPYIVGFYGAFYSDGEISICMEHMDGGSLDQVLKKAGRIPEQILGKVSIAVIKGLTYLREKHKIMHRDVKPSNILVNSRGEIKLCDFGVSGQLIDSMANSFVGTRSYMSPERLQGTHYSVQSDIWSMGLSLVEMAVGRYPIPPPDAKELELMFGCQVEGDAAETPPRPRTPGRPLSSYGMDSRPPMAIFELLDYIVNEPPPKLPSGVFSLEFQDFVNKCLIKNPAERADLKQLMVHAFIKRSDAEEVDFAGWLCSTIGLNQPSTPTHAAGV
Chain of UniProt Q12851 (whole entry, looked up): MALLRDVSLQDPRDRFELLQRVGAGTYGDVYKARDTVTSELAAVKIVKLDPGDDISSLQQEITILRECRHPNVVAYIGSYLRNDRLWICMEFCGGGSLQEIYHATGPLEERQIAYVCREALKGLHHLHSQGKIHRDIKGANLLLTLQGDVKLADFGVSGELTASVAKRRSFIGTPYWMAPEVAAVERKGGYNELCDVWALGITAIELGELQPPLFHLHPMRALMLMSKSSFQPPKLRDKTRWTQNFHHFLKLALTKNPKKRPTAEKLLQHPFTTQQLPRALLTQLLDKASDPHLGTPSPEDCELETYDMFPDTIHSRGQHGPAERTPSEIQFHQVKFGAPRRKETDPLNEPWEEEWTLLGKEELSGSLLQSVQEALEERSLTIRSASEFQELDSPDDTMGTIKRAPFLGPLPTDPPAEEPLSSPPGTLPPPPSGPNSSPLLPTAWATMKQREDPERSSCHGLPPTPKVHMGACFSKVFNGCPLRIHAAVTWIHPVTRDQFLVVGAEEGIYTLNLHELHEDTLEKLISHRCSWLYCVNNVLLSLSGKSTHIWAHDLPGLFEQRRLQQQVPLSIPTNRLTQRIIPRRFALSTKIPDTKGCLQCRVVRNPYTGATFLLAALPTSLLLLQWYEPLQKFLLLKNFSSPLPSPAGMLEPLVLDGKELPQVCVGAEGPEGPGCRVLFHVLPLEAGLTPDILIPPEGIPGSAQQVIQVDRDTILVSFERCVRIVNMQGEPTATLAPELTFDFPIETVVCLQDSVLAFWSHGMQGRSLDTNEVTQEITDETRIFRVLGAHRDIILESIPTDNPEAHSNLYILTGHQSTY
Chain of UniProt Q13873 (whole entry, looked up): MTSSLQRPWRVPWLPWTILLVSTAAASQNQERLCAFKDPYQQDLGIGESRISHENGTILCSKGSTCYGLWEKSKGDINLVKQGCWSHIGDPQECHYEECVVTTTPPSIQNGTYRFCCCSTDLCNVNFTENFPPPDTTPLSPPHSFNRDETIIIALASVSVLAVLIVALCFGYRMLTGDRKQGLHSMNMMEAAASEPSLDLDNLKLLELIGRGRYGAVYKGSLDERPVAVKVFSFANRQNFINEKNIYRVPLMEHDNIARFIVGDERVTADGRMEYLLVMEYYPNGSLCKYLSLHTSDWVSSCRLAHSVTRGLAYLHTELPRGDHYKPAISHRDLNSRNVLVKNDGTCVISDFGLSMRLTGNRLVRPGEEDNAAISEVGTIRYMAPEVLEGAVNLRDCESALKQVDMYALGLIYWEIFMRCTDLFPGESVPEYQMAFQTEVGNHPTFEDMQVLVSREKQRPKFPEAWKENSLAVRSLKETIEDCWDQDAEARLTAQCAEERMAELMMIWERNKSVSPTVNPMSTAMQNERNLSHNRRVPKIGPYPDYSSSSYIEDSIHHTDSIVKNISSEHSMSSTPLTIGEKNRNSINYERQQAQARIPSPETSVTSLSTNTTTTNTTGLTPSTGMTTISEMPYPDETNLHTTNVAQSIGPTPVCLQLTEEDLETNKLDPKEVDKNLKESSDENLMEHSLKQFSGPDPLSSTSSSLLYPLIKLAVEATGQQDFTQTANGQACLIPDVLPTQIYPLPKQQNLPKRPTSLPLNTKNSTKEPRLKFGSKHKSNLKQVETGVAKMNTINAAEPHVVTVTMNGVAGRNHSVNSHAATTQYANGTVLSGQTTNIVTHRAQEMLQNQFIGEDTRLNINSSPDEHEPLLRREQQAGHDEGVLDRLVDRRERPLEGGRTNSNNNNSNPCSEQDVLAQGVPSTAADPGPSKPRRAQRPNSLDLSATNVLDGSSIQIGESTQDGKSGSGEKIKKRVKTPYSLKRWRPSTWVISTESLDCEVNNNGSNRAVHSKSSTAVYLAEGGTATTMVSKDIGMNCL
Chain of UniProt Q9BWU1 (whole entry, looked up): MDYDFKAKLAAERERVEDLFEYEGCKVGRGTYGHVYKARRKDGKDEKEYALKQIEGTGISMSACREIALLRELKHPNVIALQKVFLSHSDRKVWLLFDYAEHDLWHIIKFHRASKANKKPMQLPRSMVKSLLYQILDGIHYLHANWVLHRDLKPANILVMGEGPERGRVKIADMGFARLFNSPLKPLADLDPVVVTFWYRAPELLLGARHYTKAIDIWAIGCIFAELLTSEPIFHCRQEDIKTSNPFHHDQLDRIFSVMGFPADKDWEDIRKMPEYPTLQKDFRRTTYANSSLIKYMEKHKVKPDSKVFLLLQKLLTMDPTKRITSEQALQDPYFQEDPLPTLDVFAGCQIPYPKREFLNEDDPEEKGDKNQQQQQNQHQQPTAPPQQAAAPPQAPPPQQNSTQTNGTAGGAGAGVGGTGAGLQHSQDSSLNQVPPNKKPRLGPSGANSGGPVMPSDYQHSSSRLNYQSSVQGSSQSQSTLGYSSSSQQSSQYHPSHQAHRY

Block 1
Cell line: mouse MPNST tumor cells
Method: high-content nuclear imaging
Measured: cell number
Concentration: 10 µM
Time: 12 h
Notes: mean of 2 replicates
Relative to: plate mean
Reading: higher = more cells
Measurement: nuclei count
C[C@H]1COc2c(N3CCN(C)CC3)c(F)cc3c(=O)c(C(=O)O)cn1c23: 1.62 z-score
CN1C(=O)C(Cc2c[nH]c3ccccc23)NC1=S (centres unmarked): -0.0183 z-score
CNc1nc(NCc2ccc(NS(C)(=O)=O)cc2Cl)cc(-c2ccccn2)n1: -1.46 z-score
CN1CCC(=C2c3ccccc3Sc3ccccc32)CC1: 1.99 z-score
Cc1cn([C@H]2C=C[C@@H](CO)O2)c(=O)[nH]c1=O: 0.792 z-score and 0.309 z-score
O=C(O)CCCC[C@@H]1SC[C@@H]2NC(=O)N[C@@H]21: 2.92 z-score
O=c1onc2n1-c1cc(Br)ccc1OC2: 0.27 z-score
O=C(COc1ccc(C(=O)c2ccccc2)cc1)NC1CCN(Cc2ccccc2)CC1: 2.53 z-score
CC(Oc1c(Cl)cccc1Cl)C1=NCCN1 (centres unmarked): 0.00886 z-score
COc1cc2c(CCNC(C)=O)c[nH]c2cc1Cl: 1.13 z-score
CCCCOc1ccc(C(=O)CCN2CCCCC2)cc1: -0.693 z-score
Nc1ccccc1Oc1ccc2c(N)nsc2c1: -5.15 z-score
CC(C)C(=O)OCC(=O)[C@@]12O[C@H](C3CCCCC3)O[C@@H]1C[C@H]1[C@@H]3CCC4=CC(=O)C=C[C@]4(C)[C@H]3[C@@H](O)C[C@@]12C: 6.76 z-score
CC(C)(C)n1nc(-c2ccc(Cl)cc2)c2c(N)ncnc21: -0.495 z-score
N=c1nc(N2CCCCC2)cc(N)n1O: 1.1 z-score and 2.51 z-score
O=C(Nc1ccccc1)OCC(CN1CCCCC1)OC(=O)Nc1ccccc1 (centres unmarked): 1.7 z-score

Block 2
Target: Serine/threonine-protein kinase PLK1 (PLK1, Homo sapiens, UniProt P53350)
Chain of UniProt P53350 (whole entry, looked up): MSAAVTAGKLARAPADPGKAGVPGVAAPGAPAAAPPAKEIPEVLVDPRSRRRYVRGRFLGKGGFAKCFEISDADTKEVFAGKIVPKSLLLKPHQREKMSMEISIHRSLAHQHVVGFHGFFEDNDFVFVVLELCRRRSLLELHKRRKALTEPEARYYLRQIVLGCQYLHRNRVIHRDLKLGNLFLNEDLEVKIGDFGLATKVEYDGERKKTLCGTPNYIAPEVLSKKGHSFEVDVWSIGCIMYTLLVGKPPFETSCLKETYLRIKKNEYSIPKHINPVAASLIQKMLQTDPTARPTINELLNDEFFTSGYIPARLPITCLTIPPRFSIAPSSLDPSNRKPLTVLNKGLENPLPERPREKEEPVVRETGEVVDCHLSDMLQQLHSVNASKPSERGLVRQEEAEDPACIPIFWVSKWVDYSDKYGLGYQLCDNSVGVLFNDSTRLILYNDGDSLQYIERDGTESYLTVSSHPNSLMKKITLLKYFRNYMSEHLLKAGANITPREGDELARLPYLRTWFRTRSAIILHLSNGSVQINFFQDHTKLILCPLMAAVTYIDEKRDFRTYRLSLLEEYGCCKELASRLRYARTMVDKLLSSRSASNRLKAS
Observed: enzyme activity
Action: inhibitor
Concentration: 0.5 µM
Relative to: control
Measurement: remaining activity
Cc1cc(Nc2nc(-c3ccccc3)nc3ccccc23)n[nH]1: 97.1%
CC(C)(C)n1nc(Cc2cccc3ccccc23)c2c(N)ncnc21: 98.1%
Fc1ccc(-c2nc3n(c2-c2ccncc2)CCS3)cc1: 101%
CC(=O)c1ccc(N2CCOCC2)cc1O: 94.3%
O=S(=O)(NCCNC/C=C/c1ccc(Br)cc1)c1cccc2cnccc12: 98.7%
CC[n+]1c(/C=C/N(C)c2ccccc2)n(-c2ccccc2)c2ccc(-c3nc4ccccc4s3)cc21: 110%
Cc1ccc(NC2=CC(=O)c3sc(C)nc3C2=O)cc1: 86.8%
CCc1[nH]c(-c2ccc(OC)cc2)nc1-c1ccncc1: 103%
Nc1nc(Nc2ccc(S(N)(=O)=O)cc2)nn1C(=O)c1c(F)cccc1F: 97.5%
NC(=O)c1ccc(N(C(N)=O)c2c(F)cccc2F)nc1-c1ccc(F)cc1F: 95.1%
CCCC(=O)Oc1ccc2[nH]c(C(=O)c3cc4ccccc4[nH]3)cc2c1: 101%
O=C1NC(=O)C(c2c[nH]c3ccccc23)=C1c1c[nH]c2ccccc12: 94.5%
CC#CC(=O)Nc1cc2c(Nc3ccc(F)c(Cl)c3)ncnc2cn1: 99.3%
O=C1Cc2c([nH]c3ccc([N+](=O)[O-])cc23)-c2ccccc2N1: 98%
Cc1cncc2cccc(S(=O)(=O)N3CCCN(C(=O)CN)C[C@@H]3C)c12: 101%
CSc1nc(-c2ccnc(N[C@@H](C)c3ccccc3)c2)c(-c2ccc(F)cc2)[nH]1 (racemic): 99.1%
N#CC(=C(N)Sc1ccc(N)cc1)c1ccccc1C(F)(F)F: 92.6%
Oc1ccc(Nc2nc(-c3ccc(Cl)cc3)cs2)cc1: 106%
COc1ccc(S(=O)(=O)N(CCO)c2ccccc2CN(C)CC=Cc2ccc(Cl)cc2)cc1: 98.8%
Nc1ncnc2c1cnn2-c1ccccc1: 98.9%
Nc1nccc(-c2c(-c3ccc(F)cc3)ncn2C2CCNCC2)n1: 101%

Block 3
Compound: CC(=O)N[C@@H](Cc1c[nH]c2ccccc12)C(=O)N[C@@H](CCC(=O)C=[N+]=[N-])C(=O)OC(C)C
Route: subcutaneous
Time: 5 days
Measurement: metabolite peak intensity
UPLC-MS/MS metabolomics, measured: gamma-glutamylisoleucine; C57BL/6 CES1-/- mice, EL4 tumour, EL4 tumour; 0.3 mg/kg/day DON equivalent, normalised to tissue mass: 318000 a.u. and 279000 a.u. and 178000 a.u. and 111000 a.u. and 336000 a.u.
UPLC-MS/MS, measured: heme; EL4, C57BL/6 CES1-/- mice, EL4 tumour, tumour; 0.3 mg/kg/day DON equivalent, normalised to tissue mass; higher = more metabolite: 1.46e+07 a.u. and 1.86e+06 a.u. and 4.18e+06 a.u. and 2.94e+06 a.u. and 8.78e+06 a.u. and 1.63e+07 a.u.
UPLC-MS/MS metabolomics, measured: N-acetylglucosamine/N-acetylgalactosamine; C57BL/6 CES1-/- mice, EL4 tumour, EL4 tumour; 0.3 mg/kg/day DON equivalent, normalised to tissue mass; higher = more metabolite: 1.03e+07 a.u. and 1.12e+07 a.u. and 8.48e+06 a.u. and 7.02e+06 a.u. and 8.41e+06 a.u. and 1.13e+07 a.u.
UPLC-MS/MS metabolomics, measured: glucose; C57BL/6 CES1-/- mice, EL4 tumour, EL4 tumour; 0.3 mg/kg/day DON equivalent, normalised to tissue mass: 3.36e+08 a.u. and 5.57e+08 a.u. and 2.4e+08 a.u. and 1.31e+08 a.u. and 2.49e+08 a.u. and 9.59e+08 a.u.
UPLC-MS/MS metabolomics, measured: glucose 6-phosphate; C57BL/6 CES1-/- mice, EL4 tumour, EL4 tumour; 0.3 mg/kg/day DON equivalent, normalised to tissue mass: 6.94e+07 a.u. and 4.52e+07 a.u. and 7.2e+07 a.u. and 6.39e+07 a.u. and 5.98e+07 a.u. and 5.73e+07 a.u.
UPLC-MS/MS metabolomics, measured: gamma-glutamylvaline; C57BL/6 CES1-/- mice, EL4 tumour, EL4 tumour; 0.3 mg/kg/day DON equivalent, normalised to tissue mass: 1.2e+06 a.u. and 703000 a.u. and 1.07e+06 a.u. and 844000 a.u. and 744000 a.u. and 858000 a.u.
LC-MS/MS metabolomics, measured: methionine sulfoxide; C57BL/6 CES1-/- mice, EL4 tumour, EL4 tumour; 0.3 mg/kg/day DON equivalent; higher = more metabolite: 5.25e+07 a.u. and 4.75e+07 a.u. and 4.3e+07 a.u. and 5.57e+07 a.u. and 5.08e+07 a.u. and 4.22e+07 a.u.
UPLC-MS/MS metabolomics, measured: gamma-glutamyl-alpha-lysine; C57BL/6 CES1-/- mice, EL4 tumour, EL4 tumour; 0.3 mg/kg/day DON equivalent, normalised to tissue mass: 418000 a.u. and 434000 a.u. and 383000 a.u. and 506000 a.u. and 530000 a.u. and 382000 a.u.
UPLC-MS/MS, measured: homocitrulline; EL4, C57BL/6 CES1-/- mice, EL4 tumour, tumour; 0.3 mg/kg/day DON equivalent, normalised to tissue mass; higher = more metabolite: 1.01e+06 a.u. and 886000 a.u. and 952000 a.u. and 1.28e+06 a.u. and 802000 a.u. and 1.53e+06 a.u.
LC-MS/MS, measured: carotene diol (1); C57BL/6 CES1-/- mice, EL4 tumour; 0.3 mg/kg DON equivalent: 123000 a.u. and 290000 a.u. and 278000 a.u. and 298000 a.u. and 173000 a.u. and 242000 a.u.

Block 4
Structure (SMILES): O=C(NS(=O)(=O)c1ccc(NCC2CCOCC2)c([N+](=O)[O-])c1)c1ccc(N2CCN(Cc3ccc(C(F)(F)F)cc3-c3ccc(Cl)cc3)CC2)cc1Oc1cnc2[nH]ccc2c1
Concentration: 1 µM
Measurement: remaining binding
EPHA8 (Homo sapiens, UniProt P29322); cell-free assay, competition with immobilised ligand: 84%
MAP3K6 (Homo sapiens, UniProt O95382); cell-free assay, competition with immobilised ligand: 80%
SIK2 (Homo sapiens, UniProt Q9H0K1); cell-free assay, competition with immobilised ligand: 100%
MET (Homo sapiens, UniProt P08581, Y1235D); cell-free assay, competition with immobilised ligand: 98%
TAOK3 (Homo sapiens, UniProt Q9H2K8); cell-free assay, competition with immobilised ligand: 86%
BMP2K (Homo sapiens, UniProt Q9NSY1); cell-free assay, competition with immobilised ligand: 94%
EGFR (Homo sapiens, UniProt P00533, L858R); cell-free assay, competition with immobilised ligand: 90%
AAK1 (Homo sapiens, UniProt Q2M2I8); binding: 98%
PIK3CA (Homo sapiens, UniProt P42336, E542K); cell-free assay, competition with immobilised ligand: 98%
MAP4K2 (Homo sapiens, UniProt Q12851); cell-free assay, competition with immobilised ligand: 76%
PIK3CA (Homo sapiens, UniProt P42336, Q546K); cell-free assay, competition with immobilised ligand: 100%
CDK17 (Homo sapiens, UniProt Q00537); cell-free assay, competition with immobilised ligand: 100%
Receptor-type tyrosine-protein kinase FLT3, autoinhibited (FLT3, Homo sapiens, UniProt P36888); cell-free assay, competition with immobilised ligand: 100%
PLK1 (Homo sapiens, UniProt P53350); cell-free assay, competition with immobilised ligand: 90%
BMPR2 (Homo sapiens, UniProt Q13873); cell-free assay, competition with immobilised ligand: 100%
MAP3K15 (Homo sapiens, UniProt Q6ZN16); cell-free assay, competition with immobilised ligand: 84%
EGFR (Homo sapiens, UniProt P00533, T790M); cell-free assay, competition with immobilised ligand: 98%
Ribosomal protein S6 kinase alpha-2, N-terminal kinase domain (RPS6KA2, Homo sapiens, UniProt Q15349); cell-free assay, competition with immobilised ligand: 100%
MARK4 (Homo sapiens, UniProt Q96L34); cell-free assay, competition with immobilised ligand: 85%
CDK19 (Homo sapiens, UniProt Q9BWU1); competition binding: 90%
CSNK1A1L (Homo sapiens, UniProt Q8N752); cell-free assay, competition with immobilised ligand: 100%
MYLK2 (Homo sapiens, UniProt Q9H1R3); cell-free assay, competition with immobilised ligand: 77%
CDK13 (Homo sapiens, UniProt Q14004); cell-free assay, competition with immobilised ligand: 63%
MAP2K1 (Homo sapiens, UniProt Q02750); cell-free assay, competition with immobilised ligand: 92%
